{"data": "Published values pooled from the literature", "note": "Parts stem from different laboratories: compare values within a part only.", "sequence of UniProt Q86UE8 (whole entry, looked up)": "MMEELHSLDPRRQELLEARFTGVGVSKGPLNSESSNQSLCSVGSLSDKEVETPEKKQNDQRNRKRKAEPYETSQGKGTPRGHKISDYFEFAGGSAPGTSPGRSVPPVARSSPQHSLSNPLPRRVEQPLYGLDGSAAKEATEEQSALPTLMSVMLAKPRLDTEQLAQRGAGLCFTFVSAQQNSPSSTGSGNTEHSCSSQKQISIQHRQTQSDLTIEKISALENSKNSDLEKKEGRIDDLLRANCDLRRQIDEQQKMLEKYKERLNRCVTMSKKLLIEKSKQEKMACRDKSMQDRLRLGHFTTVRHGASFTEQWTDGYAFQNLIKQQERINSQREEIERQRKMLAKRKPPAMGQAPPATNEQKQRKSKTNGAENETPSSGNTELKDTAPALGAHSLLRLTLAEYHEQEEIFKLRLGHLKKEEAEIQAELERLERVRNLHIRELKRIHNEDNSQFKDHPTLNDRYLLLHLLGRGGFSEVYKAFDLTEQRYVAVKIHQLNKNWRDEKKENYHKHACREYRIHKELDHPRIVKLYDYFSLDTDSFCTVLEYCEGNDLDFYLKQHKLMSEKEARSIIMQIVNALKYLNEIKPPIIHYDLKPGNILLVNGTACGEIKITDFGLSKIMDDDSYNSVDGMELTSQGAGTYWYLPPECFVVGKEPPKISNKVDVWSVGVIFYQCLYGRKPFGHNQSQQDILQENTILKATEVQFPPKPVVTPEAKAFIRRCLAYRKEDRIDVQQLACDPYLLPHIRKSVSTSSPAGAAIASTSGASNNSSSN", "sequence of UniProt Q8IYT8 (whole entry, looked up)": "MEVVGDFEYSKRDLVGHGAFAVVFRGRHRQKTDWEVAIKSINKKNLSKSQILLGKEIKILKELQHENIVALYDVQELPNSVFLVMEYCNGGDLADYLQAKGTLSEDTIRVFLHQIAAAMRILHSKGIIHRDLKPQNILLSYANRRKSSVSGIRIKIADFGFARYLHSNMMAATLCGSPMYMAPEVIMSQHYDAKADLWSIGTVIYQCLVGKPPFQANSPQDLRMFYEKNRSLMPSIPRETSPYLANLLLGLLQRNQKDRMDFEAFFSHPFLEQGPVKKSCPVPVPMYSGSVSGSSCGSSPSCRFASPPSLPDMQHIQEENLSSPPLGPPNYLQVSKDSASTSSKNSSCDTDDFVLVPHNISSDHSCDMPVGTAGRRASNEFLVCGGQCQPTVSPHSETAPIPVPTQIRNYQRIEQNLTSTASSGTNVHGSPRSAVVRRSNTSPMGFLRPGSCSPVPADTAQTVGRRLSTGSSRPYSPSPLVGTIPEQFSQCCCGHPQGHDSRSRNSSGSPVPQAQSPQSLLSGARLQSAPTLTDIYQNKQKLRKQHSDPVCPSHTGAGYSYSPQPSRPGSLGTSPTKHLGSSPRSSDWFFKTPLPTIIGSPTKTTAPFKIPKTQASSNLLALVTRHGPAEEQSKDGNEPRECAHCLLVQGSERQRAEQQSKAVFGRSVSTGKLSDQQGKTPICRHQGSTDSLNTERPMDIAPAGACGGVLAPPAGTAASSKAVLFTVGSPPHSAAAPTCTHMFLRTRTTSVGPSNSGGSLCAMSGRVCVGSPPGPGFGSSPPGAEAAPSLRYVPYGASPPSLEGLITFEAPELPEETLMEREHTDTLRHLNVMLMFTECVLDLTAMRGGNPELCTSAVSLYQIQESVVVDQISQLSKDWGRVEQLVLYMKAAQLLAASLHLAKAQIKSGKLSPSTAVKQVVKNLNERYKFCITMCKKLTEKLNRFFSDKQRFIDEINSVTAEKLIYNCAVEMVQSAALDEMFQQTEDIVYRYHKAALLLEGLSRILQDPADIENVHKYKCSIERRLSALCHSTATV", "sequence of UniProt Q8NE63 (whole entry, looked up)": "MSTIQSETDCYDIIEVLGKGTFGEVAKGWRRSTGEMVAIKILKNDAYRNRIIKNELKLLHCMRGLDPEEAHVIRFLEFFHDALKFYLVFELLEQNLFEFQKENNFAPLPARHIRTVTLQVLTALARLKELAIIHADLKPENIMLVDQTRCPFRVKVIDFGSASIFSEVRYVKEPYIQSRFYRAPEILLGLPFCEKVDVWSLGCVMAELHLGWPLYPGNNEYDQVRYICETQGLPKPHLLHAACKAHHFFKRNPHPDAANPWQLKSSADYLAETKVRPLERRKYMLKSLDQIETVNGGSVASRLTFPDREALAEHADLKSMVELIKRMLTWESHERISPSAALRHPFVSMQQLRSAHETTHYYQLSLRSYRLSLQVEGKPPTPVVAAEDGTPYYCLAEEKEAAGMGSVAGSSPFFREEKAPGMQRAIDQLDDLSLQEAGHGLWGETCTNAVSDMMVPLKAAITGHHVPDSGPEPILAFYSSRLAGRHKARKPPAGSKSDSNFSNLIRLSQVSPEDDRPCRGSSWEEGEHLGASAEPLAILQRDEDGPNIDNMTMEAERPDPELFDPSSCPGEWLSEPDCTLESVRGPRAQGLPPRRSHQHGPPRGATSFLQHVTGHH", "sequence of UniProt P78368 (whole entry, looked up)": "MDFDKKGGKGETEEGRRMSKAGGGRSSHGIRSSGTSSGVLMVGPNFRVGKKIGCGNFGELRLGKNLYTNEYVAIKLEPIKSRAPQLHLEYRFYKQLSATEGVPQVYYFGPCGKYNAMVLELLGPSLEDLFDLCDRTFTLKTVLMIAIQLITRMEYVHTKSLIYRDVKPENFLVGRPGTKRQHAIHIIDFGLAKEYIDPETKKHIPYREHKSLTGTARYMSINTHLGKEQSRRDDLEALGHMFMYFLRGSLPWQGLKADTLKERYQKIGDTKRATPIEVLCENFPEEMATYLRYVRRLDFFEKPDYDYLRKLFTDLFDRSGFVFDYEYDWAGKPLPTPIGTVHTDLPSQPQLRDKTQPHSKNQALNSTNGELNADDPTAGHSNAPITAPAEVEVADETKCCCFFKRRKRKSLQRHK", "sequence of UniProt P36896 (whole entry, looked up)": "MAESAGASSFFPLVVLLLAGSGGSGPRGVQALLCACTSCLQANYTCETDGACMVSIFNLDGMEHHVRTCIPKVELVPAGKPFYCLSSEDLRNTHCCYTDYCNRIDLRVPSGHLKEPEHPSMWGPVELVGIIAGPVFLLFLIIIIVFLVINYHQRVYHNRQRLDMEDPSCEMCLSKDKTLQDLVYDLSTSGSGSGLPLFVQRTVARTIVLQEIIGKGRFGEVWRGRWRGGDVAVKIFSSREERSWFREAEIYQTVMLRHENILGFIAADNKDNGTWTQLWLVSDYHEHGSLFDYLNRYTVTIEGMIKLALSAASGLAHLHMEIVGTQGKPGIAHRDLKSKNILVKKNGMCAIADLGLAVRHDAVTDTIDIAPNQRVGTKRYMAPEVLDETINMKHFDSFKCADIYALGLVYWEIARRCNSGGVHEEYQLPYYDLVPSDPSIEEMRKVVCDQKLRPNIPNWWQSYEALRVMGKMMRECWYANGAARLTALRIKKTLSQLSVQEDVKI", "sequence of UniProt P42685 (whole entry, looked up)": "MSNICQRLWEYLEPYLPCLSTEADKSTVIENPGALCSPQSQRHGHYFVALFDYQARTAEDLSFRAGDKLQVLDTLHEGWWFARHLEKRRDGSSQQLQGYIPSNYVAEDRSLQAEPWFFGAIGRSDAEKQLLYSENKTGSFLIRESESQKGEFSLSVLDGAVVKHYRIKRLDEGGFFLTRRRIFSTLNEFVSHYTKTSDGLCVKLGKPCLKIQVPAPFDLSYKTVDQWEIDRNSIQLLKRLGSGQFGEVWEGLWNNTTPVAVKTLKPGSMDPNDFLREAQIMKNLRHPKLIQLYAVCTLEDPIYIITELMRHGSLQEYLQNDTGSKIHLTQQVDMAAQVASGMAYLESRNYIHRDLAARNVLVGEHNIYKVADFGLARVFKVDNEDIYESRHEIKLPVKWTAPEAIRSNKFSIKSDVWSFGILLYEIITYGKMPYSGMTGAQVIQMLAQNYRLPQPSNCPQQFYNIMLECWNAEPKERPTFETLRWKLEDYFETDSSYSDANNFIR", "sequence of UniProt Q9Y6M4 (whole entry, looked up)": "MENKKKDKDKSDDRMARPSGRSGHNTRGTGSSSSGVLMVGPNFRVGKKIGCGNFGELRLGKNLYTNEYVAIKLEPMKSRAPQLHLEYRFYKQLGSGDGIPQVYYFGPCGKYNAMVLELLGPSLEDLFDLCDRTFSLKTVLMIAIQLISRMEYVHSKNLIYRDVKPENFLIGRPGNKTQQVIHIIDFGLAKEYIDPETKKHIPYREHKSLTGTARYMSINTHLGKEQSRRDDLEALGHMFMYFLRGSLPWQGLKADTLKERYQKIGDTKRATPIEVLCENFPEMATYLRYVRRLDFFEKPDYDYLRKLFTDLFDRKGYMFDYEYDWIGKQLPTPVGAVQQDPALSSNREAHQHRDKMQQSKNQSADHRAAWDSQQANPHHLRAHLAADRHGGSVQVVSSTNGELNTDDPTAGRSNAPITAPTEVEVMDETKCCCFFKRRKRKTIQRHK", "sequence of UniProt P27361 (whole entry, looked up)": "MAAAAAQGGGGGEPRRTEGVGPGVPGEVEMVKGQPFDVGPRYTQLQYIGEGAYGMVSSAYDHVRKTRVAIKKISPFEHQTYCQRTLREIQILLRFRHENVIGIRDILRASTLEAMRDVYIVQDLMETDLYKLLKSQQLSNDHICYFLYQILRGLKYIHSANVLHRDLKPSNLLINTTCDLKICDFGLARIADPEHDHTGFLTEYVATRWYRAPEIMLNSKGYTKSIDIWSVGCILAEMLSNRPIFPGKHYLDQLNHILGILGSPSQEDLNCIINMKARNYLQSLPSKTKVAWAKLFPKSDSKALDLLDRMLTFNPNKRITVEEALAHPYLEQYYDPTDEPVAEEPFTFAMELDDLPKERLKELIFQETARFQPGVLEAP"}
{"data": "Block 1", "Structure (SMILES)": "CC[n+]1c(/C=C/N(C)c2ccccc2)n(-c2ccccc2)c2ccc(-c3nc4ccccc4s3)cc21", "observed": "enzyme activity", "action": "inhibitor", "concentration": "0.5 µM", "reference": "control"}
{"target": "GSK3B (Homo sapiens, UniProt P49841)", "remaining activity [%]": 105}
{"target": "CSNK1G3 (Homo sapiens, UniProt Q9Y6M4)", "remaining activity [%]": 92.4}
{"target": "TAOK2 (Homo sapiens, UniProt Q9UL54)", "remaining activity [%]": 97.7}
{"target": "ACVR1B (Homo sapiens, UniProt P36896)", "remaining activity [%]": 110}
{"target": "MAPK3 (Homo sapiens, UniProt P27361)", "remaining activity [%]": 112}
{"target": "MAP3K5 (Homo sapiens, UniProt Q99683)", "remaining activity [%]": 100}
{"target": "CSNK1G2 (Homo sapiens, UniProt P78368)", "remaining activity [%]": 101}
{"target": "ULK2 (Homo sapiens, UniProt Q8IYT8)", "remaining activity [%]": 109}
{"target": "FGFR1 (Homo sapiens, UniProt P11362)", "remaining activity [%]": 97.4}
{"target": "MAP2K2 (Homo sapiens, UniProt P36507)", "remaining activity [%]": 88.5}
{"target": "MERTK (Homo sapiens, UniProt Q12866)", "remaining activity [%]": 96.5}
{"target": "RPS6KA2 (Homo sapiens, UniProt Q15349)", "remaining activity [%]": 101}
{"target": "GRK7 (Homo sapiens, UniProt Q8WTQ7)", "remaining activity [%]": 100}
{"target": "WEE1 (Homo sapiens, UniProt P30291)", "remaining activity [%]": 92.4}
{"data": "Block 2", "target": "Fragile X messenger ribonucleoprotein 1, C-terminal low-complexity region (Fmr1, Mus musculus, UniProt P35922)", "method": "RNA Bind-n-Seq", "molecule type": "RNA", "matrix": "in vitro", "concentration": "200 nM", "notes": "whole 134-nt RNA, ends assumed", "added": "150 mM KCl", "reference": "input library", "reading": "higher = stronger binding", "all sequences stand within": "GGGAGUUCUACAGUCCGACGAUC … UGGAAUUCUCGGGUGUCAAGG"}
{"Strand": "CUCAAGUCCUGUGCUACACAUCGUAUGUACCGAAUCGGGGAGGGGAGGGGAGGGAAAGUAUUAUGUUACGCCGUUCGGAUCUGCACUUCC", "log2 enrichment": 1.17}
{"Strand": "CCUCAAGUCCUGUGCUACACAUCGUAUGUACCGAAUCGGGGAGGAGGGAGGGAAAGUAUUAUGUUACGCCGUUCGGAUCUGCACUUCCAG", "log2 enrichment": 1.15}
{"Strand": "CUGUGCUACACAUCGUAUGUACCGAAUCGGGUUUUUUUGGGGUUUUUUUGGGGUUUUUUUGGAAAGUAUUAUGUUACGCCGUUCGGAUCU", "log2 enrichment": -0.19}
{"Strand": "AGUCCUGUGCUACACAUCGUAUGUACCGAAUCGGGGUUUUGGGGUUUUGGUUUUGGGGAAAGUAUUAUGUUACGCCGUUCGGAUCUGCAC", "log2 enrichment": 0.386}
{"Strand": "CCUGUGCUACACAUCGUAUGUACCGAAUCGGGGUUUUUUUGGGGUUUUUGGGGUUUGGGGAAAGUAUUAUGUUACGCCGUUCGGAUCUGC", "log2 enrichment": 0.418}
{"Strand": "CACAGACAACACGCACCCACACAGACACAGAGGGAAGGGGUUGGGAUGGGGACAGGGUAAACAGCAGGGCGGGGUAGGACCCCAGCCCCU", "log2 enrichment": 1.23}
{"Strand": "UGCAGAAGCAUCUUCAGUUGGAGAGCCAUUGCCUCUUGCUGUGAAAUAUUUGGGAAUCUUCAGAAACCAUGAAGAAUAACCUGCUAAAGG", "log2 enrichment": -1.47}
{"Strand": "CCUCAAGUCCUGUGCUACACAUCGUAUGUACCGAAUCGGUGGGGUGGUGGGGAAAGUAUUAUGUUACGCCGUUCGGAUCUGCACUUCCAG", "log2 enrichment": 0.432}
{"data": "Block 3", "SMILES": "COc1cc(-c2cn(C3CCc4ccccc4N(CC(F)(F)F)C3=O)nn2)ccc1-n1ccc(C)n1 (stereo not drawn)", "observed": "cell-free assay", "method": "competition with immobilised ligand", "concentration": "1 µM"}
{"target": "STK17A (Homo sapiens, UniProt Q9UEE5)", "remaining binding": "100%"}
{"target": "HIPK4 (Homo sapiens, UniProt Q8NE63)", "remaining binding": "100%"}
{"target": "FRK (Homo sapiens, UniProt P42685)", "remaining binding": "100%"}
{"target": "TRPM6 (Homo sapiens, UniProt Q9BX84)", "remaining binding": "100%"}
{"target": "TLK2 (Homo sapiens, UniProt Q86UE8)", "remaining binding": "97%"}
{"target": "ALK (Homo sapiens, UniProt Q9UM73, L1196M)", "remaining binding": "91%"}
{"data": "Block 4", "target": "Microphthalmia-associated transcription factor, full length (MITF, Homo sapiens, UniProt O75030-10, residues 1-413)", "method": "protein-binding microarray", "molecule type": "double-stranded DNA, one strand shown", "matrix": "in vitro", "concentration": "not given", "notes": "k-mer, scored over probes, only values ≥0.25", "reading": "higher = stronger binding"}
{"Strand": "AGTCATG", "E-score": 0.375}
{"Strand": "AGGGAGG", "E-score": 0.28}
{"Strand": "AACATGT", "E-score": 0.357}
{"Strand": "CGGGGTC", "E-score": 0.259}
{"Strand": "CACGTGG", "E-score": 0.491}
{"Strand": "GGATCAC", "E-score": 0.32}
{"Strand": "ACCCCAT", "E-score": 0.262}
{"Strand": "ACGTGAA", "E-score": 0.264}
{"note": "For quick reference, copied from above (block 3):"}
{"target": "FRK (Homo sapiens, UniProt P42685)", "remaining binding": "100%"}
{"target": "TRPM6 (Homo sapiens, UniProt Q9BX84)", "remaining binding": "100%"}
{"target": "TLK2 (Homo sapiens, UniProt Q86UE8)", "remaining binding": "97%"}
{"target": "ALK (Homo sapiens, UniProt Q9UM73, L1196M)", "remaining binding": "91%"}
